Assay results collected from several papers.
Numbered parts are unrelated; each lists some results of a single study. Several values in a cell are separate wells, animals, samples, runs or records.

Sample 1
Target: DNA polymerase theta, ATPase domain (POLQ, Homo sapiens, UniProt O75417)
UniProt O75417, sequence (whole entry, unmodified, looked up): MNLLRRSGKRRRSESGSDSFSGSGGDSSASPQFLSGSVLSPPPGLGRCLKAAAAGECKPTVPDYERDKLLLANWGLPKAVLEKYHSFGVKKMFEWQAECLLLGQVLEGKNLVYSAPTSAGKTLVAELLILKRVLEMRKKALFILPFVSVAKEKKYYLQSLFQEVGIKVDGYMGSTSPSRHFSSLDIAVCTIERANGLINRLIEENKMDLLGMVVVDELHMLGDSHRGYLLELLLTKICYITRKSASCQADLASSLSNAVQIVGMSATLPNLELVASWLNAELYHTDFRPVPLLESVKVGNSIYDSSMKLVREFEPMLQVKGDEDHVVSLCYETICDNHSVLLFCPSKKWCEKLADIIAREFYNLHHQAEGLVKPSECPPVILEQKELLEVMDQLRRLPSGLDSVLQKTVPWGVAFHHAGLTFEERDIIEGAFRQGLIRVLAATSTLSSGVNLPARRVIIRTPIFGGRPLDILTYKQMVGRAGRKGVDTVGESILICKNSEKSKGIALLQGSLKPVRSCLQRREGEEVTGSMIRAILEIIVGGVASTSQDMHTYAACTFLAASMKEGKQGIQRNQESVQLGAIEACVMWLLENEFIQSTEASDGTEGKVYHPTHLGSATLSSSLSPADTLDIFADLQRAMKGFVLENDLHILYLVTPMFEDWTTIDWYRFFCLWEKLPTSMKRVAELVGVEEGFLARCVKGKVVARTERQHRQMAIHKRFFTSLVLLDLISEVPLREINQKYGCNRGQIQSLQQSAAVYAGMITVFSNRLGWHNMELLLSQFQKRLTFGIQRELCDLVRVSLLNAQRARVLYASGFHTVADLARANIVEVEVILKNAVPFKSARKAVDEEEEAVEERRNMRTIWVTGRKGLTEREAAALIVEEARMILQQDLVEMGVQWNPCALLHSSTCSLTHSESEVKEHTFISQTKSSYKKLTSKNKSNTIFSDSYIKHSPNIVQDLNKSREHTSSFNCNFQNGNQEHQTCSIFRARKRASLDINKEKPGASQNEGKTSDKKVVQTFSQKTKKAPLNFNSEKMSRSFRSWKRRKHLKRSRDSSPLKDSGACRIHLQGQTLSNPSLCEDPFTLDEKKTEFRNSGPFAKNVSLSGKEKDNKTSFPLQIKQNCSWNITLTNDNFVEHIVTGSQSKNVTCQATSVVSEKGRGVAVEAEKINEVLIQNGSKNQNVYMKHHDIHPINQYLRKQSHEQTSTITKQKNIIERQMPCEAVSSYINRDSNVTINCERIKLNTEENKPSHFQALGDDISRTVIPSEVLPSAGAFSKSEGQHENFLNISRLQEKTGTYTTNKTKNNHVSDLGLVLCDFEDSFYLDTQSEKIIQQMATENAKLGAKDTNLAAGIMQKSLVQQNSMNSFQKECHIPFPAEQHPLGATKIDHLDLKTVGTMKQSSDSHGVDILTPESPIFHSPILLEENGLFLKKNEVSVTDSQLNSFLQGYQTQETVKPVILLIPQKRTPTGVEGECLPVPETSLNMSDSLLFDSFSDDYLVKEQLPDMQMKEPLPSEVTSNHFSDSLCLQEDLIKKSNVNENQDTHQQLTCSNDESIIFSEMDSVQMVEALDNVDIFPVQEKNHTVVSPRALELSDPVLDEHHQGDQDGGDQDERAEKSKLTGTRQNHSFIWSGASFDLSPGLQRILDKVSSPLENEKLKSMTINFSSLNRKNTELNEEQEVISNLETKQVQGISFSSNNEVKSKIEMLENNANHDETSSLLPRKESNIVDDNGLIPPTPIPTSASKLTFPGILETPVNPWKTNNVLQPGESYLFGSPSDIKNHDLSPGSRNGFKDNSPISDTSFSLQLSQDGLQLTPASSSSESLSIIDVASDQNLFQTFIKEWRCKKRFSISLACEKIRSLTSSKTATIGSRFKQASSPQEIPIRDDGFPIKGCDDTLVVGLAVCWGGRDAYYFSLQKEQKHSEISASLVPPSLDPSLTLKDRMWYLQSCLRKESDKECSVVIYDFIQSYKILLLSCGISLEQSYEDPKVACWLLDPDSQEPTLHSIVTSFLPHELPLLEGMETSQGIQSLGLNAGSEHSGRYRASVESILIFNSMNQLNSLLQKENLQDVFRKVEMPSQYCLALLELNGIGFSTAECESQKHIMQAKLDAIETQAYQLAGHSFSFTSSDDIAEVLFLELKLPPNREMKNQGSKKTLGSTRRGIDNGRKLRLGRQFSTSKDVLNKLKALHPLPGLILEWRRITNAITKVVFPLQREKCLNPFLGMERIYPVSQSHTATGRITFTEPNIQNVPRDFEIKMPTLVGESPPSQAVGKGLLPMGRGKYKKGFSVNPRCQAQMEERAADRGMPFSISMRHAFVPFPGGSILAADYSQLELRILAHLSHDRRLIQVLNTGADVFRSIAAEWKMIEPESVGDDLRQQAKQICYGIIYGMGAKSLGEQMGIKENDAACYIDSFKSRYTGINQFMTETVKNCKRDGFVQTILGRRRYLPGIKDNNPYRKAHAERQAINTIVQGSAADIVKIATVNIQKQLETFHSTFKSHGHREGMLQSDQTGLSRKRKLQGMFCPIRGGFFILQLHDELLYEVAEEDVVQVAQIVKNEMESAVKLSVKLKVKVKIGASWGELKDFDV
Observed: enzyme activity
Mode: inhibitor
Concentration: 77 µM
Baseline: untreated
Compound | remaining activity
CN(Cc1cc(Br)cc(Br)c1N)C1CCCCC1 | 102%
C[C@H]1[C@@H](O)O[C@@H]2O[C@@]3(C)CC[C@H]4[C@H](C)CC[C@@H]1[C@@]24OO3 | 101%
C/C(=C(\CCOP(=O)(O)O)SC(=O)c1ccccc1)N(C=O)Cc1cnc(C)nc1N | 110%
CN(C)[C@@H](CCOc1cccc2ccccc12)c1ccccc1 | 104%
C[C@@H]1O[C@@H](OC[C@H]2O[C@@H](Oc3c(-c4ccc(OCCO)c(OCCO)c4)oc4cc(OCCO)cc(O)c4c3=O)[C@H](O)[C@@H](O)[C@@H]2O)[C@H](O)[C@H](O)[C@H]1O | 98.8%
O=c1c2ccccc2[nH]c(=S)n1CCN1CCC(=C(c2ccc(F)cc2)c2ccc(F)cc2)CC1 | 102% and 106%
CO/N=C(\C(=O)N[C@@H]1C(=O)N2C(C(=O)O)=C(COC(N)=O)CS[C@H]12)c1ccco1 | 98.1%
C[C@H]1COc2c(N3CCN(C)CC3)c(F)cc3c(=O)c(C(=O)O)cn1c23 | 88.1%
Cc1cc(=O)[nH]c(=S)[nH]1 | 86.7%

Sample 2
Target: Calcium/calmodulin-dependent protein kinase type II subunit alpha (CAMK2A, Homo sapiens, UniProt Q9UQM7)
UniProt Q9UQM7, sequence (whole entry, looked up): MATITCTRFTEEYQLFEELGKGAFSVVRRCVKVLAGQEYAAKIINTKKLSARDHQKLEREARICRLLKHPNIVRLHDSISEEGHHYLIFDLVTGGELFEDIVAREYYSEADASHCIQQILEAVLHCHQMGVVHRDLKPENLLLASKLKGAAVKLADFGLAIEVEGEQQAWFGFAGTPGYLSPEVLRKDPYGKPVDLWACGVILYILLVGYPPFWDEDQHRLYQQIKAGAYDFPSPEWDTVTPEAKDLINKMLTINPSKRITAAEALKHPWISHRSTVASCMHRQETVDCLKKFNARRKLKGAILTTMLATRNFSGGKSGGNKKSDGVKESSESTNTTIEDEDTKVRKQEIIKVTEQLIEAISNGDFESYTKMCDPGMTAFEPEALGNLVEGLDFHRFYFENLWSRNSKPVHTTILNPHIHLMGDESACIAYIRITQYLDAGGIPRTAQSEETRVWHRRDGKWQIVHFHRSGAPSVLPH
Observed: enzyme activity
Mode: inhibitor
Concentration: 10 µM
SMILES | inhibition
CC(C)=CCc1c(-c2ccc(O)cc2O)oc2c(CC=C(C)C)c(O)cc(O)c2c1=O | 28%
CCOc1nc2cccc(C(=O)OCc3oc(=O)oc3C)c2n1Cc1ccc(-c2ccccc2-c2noc(=O)[nH]2)cc1 | -2%
CCCCCCCCC[C@H](O)CC(=O)CCc1ccc(O)c(OC)c1 | 10%
COc1cc2oc(=O)ccc2cc1CC=C(C)C | -30%
CCNC(=O)[C@@H]1CCCN1C(=O)[C@H](CCCN=C(N)N)NC(=O)[C@H](CC(C)C)NC(=O)CNC(=O)[C@H](Cc1ccc(O)cc1)NC(=O)[C@H](CO)NC(=O)[C@H](Cc1c[nH]c2ccccc12)NC(=O)[C@H](Cc1cnc[nH]1)NC(=O)[C@@H]1CCC(=O)N1 | 5%
C[C@H]1[C@H](C)CC[C@]2(C(=O)O[C@@H]3O[C@H](CO[C@@H]4O[C@H](CO)[C@@H](O[C@@H]5O[C@@H](C)[C@H](O)[C@@H](O)[C@H]5O)[C@H](O)[C@H]4O)[C@@H](O)[C@H](O)[C@H]3O)CC[C@]3(C)C(=CC[C@@H]4[C@@]5(C)C[C@@H](O)[C@H](O)[C@@](C)(CO)[C@@H]5CC[C@]43C)[C@H]12 | -12%
COc1cc2c(c(OC)c1OC)-c1c(cc3c(c1OC)OCO3)[C@H](OC(=O)c1ccccc1)[C@@](C)(O)[C@@H](C)C2 | -8%
Cc1cc2c(cc1CC(=O)c1sccc1S(=O)(=O)Nc1onc(C)c1Cl)OCO2 | -9%
CCCCC(=O)OCC(=O)[C@H]1[C@H](C)C[C@H]2[C@@H]3C[C@H](F)C4=CC(=O)C=C[C@]4(C)[C@@]3(F)[C@@H](O)C[C@@]21C | -7%
C=C1C(=O)O[C@H]2[C@H]1CC[C@]1(C)O[C@@]13CC[C@@](C)(O)[C@H]23 | -4%
Cc1cn([C@H]2C[C@H](N=[N+]=[N-])[C@@H](CO)O2)c(=O)[nH]c1=O | -11%

Sample 3
Target: 5-hydroxytryptamine receptor 1E (HTR1E, Homo sapiens, UniProt P28566)
UniProt P28566, sequence (whole entry, looked up): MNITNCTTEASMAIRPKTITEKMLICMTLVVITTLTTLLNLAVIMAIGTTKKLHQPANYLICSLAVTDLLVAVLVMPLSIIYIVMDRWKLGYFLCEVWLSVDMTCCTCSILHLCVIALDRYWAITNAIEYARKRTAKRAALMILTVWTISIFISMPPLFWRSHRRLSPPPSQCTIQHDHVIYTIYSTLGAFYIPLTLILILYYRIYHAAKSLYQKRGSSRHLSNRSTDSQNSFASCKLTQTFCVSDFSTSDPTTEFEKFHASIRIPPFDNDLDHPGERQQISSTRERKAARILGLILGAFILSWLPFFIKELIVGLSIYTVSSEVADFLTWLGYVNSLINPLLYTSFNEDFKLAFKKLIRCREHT
Observed: ligand displacement
Technique: radioligand
Concentration: 10 µM
Compound | inhibition
Cn1cc(Cl)c2c(Oc3c(F)cc(Nc4cc(Cl)nc(N)n4)cc3F)ccnc21 | -26.3%
CNC(=O)Nc1ccc2c(c1)C1(CC2)OC(=O)N(CC(=O)N(Cc2ccc(F)cc2)[C@@H](C)C(F)(F)F)C1=O (single isomer, unassigned) | 0.33%
CC(=O)N1CCC(c2ccc(C(=O)NC(=N)N)cc2C(F)(F)F)CC1 | -9.59%
Cc1c[nH]c2nccc(Oc3c(F)cc(Nc4cc(Cl)nc(N)n4)cc3F)c12 | -31.2%
Cc1ccc(-c2cnc([C@@]3(O)CC[C@H](C(=O)O)C(C)(C)C3)s2)cc1Nc1cccc(C(F)(F)F)n1 | -12%
Cc1nc(Cc2cccc(C(F)(F)F)c2)sc1-c1ccc(C(N)=O)nc1 | 9.13%
C[C@@H]1CN(c2cc(-c3nn(C)c4ccc(OC5(C)CC5)cc34)ncn2)C[C@H](C)O1 | -0.18%
FC(F)(F)c1ccc2c(c1)nc(-c1cccnc1)n2C1CC1 | -18.6%
CC(C)CC(=O)N1CCc2nc(-c3ccc(Br)cc3)nc(N(C)Cc3ccccc3)c2C1 | -5.76%
O=C(O)c1cc(-c2ccc(C3CCNCC3)cc2)c2ccc(-c3ccc(C(F)(F)F)cc3)cc2c1 | 13.4%
O=C(O)[C@@H]1[C@@H](Cn2nnc3ccccc3c2=O)CC[C@H]1C(=O)c1ccc(OCCC2CCOCC2)cc1 | 3.94%
O=C(Nc1cccnn1)N1CC(CC=Cc2cncc(Oc3ccc(C(F)(F)F)cn3)n2)C1 | 0.84%
O=C(NCc1ncc(C(F)(F)F)cc1Cl)c1ccc2c(c1)C1(CCS(=O)(=O)CC1)[C@@H](C1CC1)N2S(=O)(=O)c1ccc(F)cc1 | -1.55%
CCS(=O)(=O)c1cc2cc(C[C@@](O)(CC(C)(C)c3ccc(F)cc3C(N)=O)C(F)(F)F)[nH]c2cn1 | 11.2%
NS(=O)(=O)c1cc(NC(=O)C2(c3ccccc3Cl)CC2)ccc1Oc1cccc(Cl)c1 | -1.46%
O=C(N[C@H]1CCCCC/C=C\C2C[C@@]2(C(=O)O)NC(=O)[C@@H]2C[C@@H](Oc3ccncc3)CN2C1=O)OC1CCCC1 (stereo partly drawn) | 0%
CC(=O)c1c(NS(C)(=O)=O)c2cc(-c3ccc(Cl)cc3)c(-c3ccc(Cl)cc3Cl)nc2n(C)c1=O | 29.2%
Cc1c(C(=O)O)cc(-c2ccc(C3CCNCC3)cc2)c2ccc(-c3ccc(C(F)(F)F)cc3)cc12 | 3.48%
CN([C@@H]1CCc2c(CC(=O)O)c3ccccc3n2C1)S(=O)(=O)c1ccc(F)cc1 | 35.8%
O=c1nc(-c2ccccn2)sc2ccccc12 | -1.13%

Sample 4
Target: Serine/threonine-protein kinase Nek11 (NEK11, Homo sapiens, UniProt Q8NG66)
Observed: enzyme activity
Mode: inhibitor
Concentration: 0.5 µM
Baseline: control
Target sequence (Q8NG66 1-645): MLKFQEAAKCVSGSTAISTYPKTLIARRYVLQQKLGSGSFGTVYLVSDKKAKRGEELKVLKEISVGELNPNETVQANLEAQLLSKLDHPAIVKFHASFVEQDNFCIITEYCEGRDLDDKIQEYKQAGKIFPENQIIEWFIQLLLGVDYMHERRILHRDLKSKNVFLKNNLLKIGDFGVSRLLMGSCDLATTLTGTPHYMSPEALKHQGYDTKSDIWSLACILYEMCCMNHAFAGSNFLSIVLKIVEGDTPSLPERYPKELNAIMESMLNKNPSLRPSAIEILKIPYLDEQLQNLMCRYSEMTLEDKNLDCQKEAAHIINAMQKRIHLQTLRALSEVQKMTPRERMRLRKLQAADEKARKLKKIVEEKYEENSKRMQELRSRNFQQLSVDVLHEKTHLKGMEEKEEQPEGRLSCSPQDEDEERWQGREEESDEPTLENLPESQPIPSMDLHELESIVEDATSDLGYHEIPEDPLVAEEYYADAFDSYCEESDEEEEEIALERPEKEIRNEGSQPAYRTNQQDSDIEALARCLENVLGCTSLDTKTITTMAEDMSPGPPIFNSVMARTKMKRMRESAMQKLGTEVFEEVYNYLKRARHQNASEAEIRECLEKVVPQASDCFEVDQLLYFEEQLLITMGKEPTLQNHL
Structure (SMILES) | remaining activity [%]
CN(C)C[C@H]1CCn2c(c(C3=C(c4cn(C)c5ccccc45)C(=O)NC3=O)c3ccccc32)C1 | 74.1
COc1cc2ncnc(Nc3ccc(O)c(Br)c3)c2cc1OC | 103
O=C1c2ccccc2-c2n[nH]c3cccc1c23 | 103
CCN(CC)C(=O)c1ccc(Nc2nc(OCC3CCCCC3)c3[nH]cnc3n2)cc1 | 132
c1ccc(-c2cnc(Nc3ccc(OCCN4CCCC4)cc3)s2)cc1 | 95
Cc1nc2cc3nc(-c4cccs4)cnc3cc2n1C | 93.1
Cn1nc2c3c(cccc31)C(=O)c1ccccc1-2 | 105
CN([C@@H](Cc1ccc(OS(=O)(=O)c2cccc3cnccc23)cc1)C(=O)N1CCN(c2ccccc2)CC1)S(=O)(=O)c1cccc2cnccc12 | 103
CCN(CC)CCNC(=O)c1c(C)[nH]c(/C=C2\C(=O)Nc3ccc(F)cc32)c1C | 106
Cc1cc2ncc(-c3ccccc3)nc2cc1C | 104
N#C/C(=C\c1ccc(O)c(O)c1)C(=O)NCc1ccccc1 | 95.4
O=C1C(Cl)=C(N2C(=O)CCC2=O)C(=O)c2ccccc21 | 101
Cc1cn(-c2cc(NC(=O)c3ccc(C)c(Nc4nccc(-c5cccnc5)n4)c3)cc(C(F)(F)F)c2)cn1 | 110
Ic1cccc(CSc2nnc(-c3ccncc3)o2)c1 | 113
Nc1cccc(-c2cc3c(Oc4cccc(O)c4)ncnc3[nH]2)c1 | 89.6
COc1cc2c(cc1OC)-c1[nH]nc(Nc3cccc(F)c3)c1C2 | 98.9
COc1cc2ncnc(Nc3cccc(Cl)c3)c2cc1OC | 96.9
c1ccc(-c2[nH]ncc2-c2ccnc3ccccc23)nc1 | 91.8
N#Cc1c(NC(=O)c2cccc3ccccc23)sc2c1CCCC2 | 105
CCN(CC)CCNC(=O)c1c(C)[nH]c(/C=C2\C(=O)Nc3ccc(Cl)cc32)c1C | 83.4
O=C(Nc1cccc(Nc2nccc(Nc3cccc(C(F)(F)F)c3)n2)c1)C1CC1 | 102
O=C(NC(NC(=S)Nc1ccc(F)c([N+](=O)[O-])c1)C(Cl)(Cl)Cl)C(c1ccccc1)c1ccccc1 (stereo not drawn) | 92.2
O=c1cc(-c2cccc3c2Sc2ccccc2S3)oc(N2CCOCC2)c1 | 88.5

A few entries again (sample 1):
Compound | remaining activity
C/C(=C(\CCOP(=O)(O)O)SC(=O)c1ccccc1)N(C=O)Cc1cnc(C)nc1N | 110%
CN(C)[C@@H](CCOc1cccc2ccccc12)c1ccccc1 | 104%
C[C@@H]1O[C@@H](OC[C@H]2O[C@@H](Oc3c(-c4ccc(OCCO)c(OCCO)c4)oc4cc(OCCO)cc(O)c4c3=O)[C@H](O)[C@@H](O)[C@@H]2O)[C@H](O)[C@H](O)[C@H]1O | 98.8%
O=c1c2ccccc2[nH]c(=S)n1CCN1CCC(=C(c2ccc(F)cc2)c2ccc(F)cc2)CC1 | 102% and 106%
CO/N=C(\C(=O)N[C@@H]1C(=O)N2C(C(=O)O)=C(COC(N)=O)CS[C@H]12)c1ccco1 | 98.1%
